# Assay results from different studies.
# Parts stem from different laboratories: compare values within a part only.
# UniProt Q9P1W9, sequence (whole entry, looked up): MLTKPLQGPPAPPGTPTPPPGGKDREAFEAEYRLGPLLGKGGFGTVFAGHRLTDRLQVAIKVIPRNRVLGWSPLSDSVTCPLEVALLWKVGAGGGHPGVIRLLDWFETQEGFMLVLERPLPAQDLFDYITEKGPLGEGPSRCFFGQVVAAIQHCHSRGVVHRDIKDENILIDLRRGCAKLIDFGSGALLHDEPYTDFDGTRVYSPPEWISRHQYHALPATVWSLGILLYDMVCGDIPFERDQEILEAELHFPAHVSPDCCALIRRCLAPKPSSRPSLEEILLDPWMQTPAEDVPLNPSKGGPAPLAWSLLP
# UniProt P29323, sequence (whole entry, looked up): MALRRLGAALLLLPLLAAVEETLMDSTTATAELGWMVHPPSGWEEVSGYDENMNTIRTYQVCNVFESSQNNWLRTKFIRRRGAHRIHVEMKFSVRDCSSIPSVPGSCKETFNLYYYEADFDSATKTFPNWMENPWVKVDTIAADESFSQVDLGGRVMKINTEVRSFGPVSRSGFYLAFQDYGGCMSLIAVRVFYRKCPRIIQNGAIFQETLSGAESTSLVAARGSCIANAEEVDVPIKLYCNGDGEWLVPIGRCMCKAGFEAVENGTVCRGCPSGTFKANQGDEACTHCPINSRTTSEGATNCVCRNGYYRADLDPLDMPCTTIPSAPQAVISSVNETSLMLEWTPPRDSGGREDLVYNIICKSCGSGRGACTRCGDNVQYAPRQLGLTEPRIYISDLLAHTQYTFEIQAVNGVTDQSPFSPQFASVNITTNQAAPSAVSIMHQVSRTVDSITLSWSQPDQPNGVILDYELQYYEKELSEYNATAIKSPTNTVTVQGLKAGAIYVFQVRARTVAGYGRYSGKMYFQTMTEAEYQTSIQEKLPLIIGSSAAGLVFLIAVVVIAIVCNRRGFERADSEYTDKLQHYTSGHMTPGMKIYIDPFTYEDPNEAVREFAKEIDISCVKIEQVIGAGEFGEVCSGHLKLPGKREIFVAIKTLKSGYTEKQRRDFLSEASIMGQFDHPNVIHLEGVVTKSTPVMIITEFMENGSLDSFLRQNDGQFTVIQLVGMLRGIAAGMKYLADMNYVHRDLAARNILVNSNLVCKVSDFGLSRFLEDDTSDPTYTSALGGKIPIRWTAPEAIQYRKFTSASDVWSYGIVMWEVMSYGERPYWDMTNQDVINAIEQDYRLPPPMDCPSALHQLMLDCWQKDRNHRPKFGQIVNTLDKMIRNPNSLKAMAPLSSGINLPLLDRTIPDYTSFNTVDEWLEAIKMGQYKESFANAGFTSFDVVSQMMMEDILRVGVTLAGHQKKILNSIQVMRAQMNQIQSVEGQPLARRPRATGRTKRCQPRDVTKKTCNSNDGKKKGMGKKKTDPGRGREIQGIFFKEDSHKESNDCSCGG
# UniProt Q9UBF8, sequence (whole entry, looked up): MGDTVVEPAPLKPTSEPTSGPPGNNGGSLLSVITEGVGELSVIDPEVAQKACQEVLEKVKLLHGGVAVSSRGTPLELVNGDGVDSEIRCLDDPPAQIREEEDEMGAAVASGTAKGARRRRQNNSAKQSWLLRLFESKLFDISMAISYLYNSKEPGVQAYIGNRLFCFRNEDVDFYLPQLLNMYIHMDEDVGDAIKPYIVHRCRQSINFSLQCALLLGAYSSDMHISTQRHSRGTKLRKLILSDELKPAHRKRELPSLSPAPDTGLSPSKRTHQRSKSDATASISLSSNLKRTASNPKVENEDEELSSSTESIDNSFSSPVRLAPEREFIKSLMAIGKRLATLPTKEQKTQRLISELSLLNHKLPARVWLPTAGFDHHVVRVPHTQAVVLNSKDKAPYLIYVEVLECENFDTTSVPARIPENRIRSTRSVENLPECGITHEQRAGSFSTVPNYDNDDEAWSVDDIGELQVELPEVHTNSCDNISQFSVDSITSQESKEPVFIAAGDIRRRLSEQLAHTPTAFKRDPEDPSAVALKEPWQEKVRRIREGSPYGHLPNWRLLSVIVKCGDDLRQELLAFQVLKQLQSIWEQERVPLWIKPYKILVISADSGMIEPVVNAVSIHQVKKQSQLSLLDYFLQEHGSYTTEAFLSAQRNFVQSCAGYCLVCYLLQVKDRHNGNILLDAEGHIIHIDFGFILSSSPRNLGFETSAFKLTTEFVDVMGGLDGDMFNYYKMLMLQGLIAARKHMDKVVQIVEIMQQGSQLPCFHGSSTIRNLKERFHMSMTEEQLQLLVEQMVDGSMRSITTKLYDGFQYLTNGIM
# UniProt P49840, sequence (whole entry, looked up): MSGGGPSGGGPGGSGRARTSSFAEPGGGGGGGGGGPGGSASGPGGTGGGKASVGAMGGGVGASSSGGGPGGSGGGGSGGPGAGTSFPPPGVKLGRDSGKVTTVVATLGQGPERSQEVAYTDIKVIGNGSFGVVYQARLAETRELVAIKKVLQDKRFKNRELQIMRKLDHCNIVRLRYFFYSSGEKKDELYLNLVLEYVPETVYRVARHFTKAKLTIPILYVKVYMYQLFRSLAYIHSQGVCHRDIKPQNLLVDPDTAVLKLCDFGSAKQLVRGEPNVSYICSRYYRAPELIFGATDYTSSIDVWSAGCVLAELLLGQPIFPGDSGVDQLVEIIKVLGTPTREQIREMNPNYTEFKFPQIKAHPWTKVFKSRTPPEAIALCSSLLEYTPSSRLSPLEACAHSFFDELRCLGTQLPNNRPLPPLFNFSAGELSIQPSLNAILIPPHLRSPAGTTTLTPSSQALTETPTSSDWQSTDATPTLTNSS
# UniProt Q9Y6E0, sequence (whole entry, looked up): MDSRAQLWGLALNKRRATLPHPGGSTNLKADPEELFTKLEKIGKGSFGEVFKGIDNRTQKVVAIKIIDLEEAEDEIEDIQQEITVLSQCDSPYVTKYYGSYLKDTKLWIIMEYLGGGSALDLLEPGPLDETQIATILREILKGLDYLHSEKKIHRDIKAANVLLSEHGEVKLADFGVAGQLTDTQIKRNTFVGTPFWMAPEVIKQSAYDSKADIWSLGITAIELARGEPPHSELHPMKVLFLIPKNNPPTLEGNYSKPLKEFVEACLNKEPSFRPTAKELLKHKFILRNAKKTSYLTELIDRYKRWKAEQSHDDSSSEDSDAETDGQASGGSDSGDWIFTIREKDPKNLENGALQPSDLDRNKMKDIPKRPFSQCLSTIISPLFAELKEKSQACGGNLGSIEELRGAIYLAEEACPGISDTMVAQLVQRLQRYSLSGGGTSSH
# UniProt Q8TDR2, sequence (whole entry, looked up): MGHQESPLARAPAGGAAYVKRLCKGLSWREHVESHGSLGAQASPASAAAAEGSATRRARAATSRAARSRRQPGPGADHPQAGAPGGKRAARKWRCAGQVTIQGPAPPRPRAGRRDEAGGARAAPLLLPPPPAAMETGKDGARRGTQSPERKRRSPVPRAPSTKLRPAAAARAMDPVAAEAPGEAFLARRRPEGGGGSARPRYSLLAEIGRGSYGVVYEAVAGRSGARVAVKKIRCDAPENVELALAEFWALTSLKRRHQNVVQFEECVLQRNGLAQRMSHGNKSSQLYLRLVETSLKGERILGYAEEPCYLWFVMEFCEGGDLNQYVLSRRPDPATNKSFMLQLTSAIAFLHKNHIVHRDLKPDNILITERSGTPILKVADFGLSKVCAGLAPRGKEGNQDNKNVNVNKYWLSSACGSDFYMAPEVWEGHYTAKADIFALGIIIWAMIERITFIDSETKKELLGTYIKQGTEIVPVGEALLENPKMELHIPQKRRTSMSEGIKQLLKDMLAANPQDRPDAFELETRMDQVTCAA
# UniProt O94768, sequence (whole entry, looked up): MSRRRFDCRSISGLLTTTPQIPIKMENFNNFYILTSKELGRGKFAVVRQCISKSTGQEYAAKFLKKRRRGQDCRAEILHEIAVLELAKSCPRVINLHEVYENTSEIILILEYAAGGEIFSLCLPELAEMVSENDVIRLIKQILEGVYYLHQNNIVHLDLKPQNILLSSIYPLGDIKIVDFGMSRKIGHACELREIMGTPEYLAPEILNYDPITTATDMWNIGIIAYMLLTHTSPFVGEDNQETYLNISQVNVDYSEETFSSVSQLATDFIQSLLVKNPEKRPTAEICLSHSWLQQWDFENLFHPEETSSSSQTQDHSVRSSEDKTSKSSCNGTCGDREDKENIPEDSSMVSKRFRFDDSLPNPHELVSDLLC
# UniProt Q9HCP0, sequence (whole entry, looked up): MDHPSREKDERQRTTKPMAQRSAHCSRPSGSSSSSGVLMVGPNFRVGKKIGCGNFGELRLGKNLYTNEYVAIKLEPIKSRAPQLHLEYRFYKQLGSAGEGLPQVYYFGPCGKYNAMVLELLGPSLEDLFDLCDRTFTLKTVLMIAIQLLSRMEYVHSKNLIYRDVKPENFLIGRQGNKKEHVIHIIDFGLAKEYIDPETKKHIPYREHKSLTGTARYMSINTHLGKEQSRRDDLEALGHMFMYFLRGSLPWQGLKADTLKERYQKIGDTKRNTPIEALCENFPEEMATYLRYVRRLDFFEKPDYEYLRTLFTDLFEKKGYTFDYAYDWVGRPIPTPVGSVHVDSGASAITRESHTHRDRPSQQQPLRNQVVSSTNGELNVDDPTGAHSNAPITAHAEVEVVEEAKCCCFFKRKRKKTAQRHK
# UniProt Q9Y2H1, sequence (whole entry, looked up): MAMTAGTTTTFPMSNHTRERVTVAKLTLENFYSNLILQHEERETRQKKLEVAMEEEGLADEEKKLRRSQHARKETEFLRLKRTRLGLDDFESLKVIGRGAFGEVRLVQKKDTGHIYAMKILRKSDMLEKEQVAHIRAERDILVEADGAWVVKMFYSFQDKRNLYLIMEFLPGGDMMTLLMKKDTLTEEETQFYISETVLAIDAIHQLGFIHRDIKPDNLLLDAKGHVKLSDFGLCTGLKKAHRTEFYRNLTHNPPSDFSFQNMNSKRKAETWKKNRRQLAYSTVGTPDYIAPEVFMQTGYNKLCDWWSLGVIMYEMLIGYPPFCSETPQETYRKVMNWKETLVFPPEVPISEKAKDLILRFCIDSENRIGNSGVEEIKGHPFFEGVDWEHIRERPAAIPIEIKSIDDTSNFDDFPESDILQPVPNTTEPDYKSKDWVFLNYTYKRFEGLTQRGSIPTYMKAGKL

# Set 1 — method: competition with immobilised ligand; tested at: 1 µM
# Compound: C[C@H](c1ccc(F)cc1)N(Cc1cccc(C(=O)O)c1)C(=O)c1cnc2ccccc2c1
target,effect on,remaining binding
"LATS1 (Homo sapiens, UniProt O95835)",cell-free assay,100%
"MAP3K5 (Homo sapiens, UniProt Q99683)",cell-free assay,100%
"CSF1R (Homo sapiens, UniProt P07333)",cell-free assay,100%
"STK24 (Homo sapiens, UniProt Q9Y6E0)",cell-free assay,100%
"CSNK1G1 (Homo sapiens, UniProt Q9HCP0)",cell-free assay,91%
"STK35 (Homo sapiens, UniProt Q8TDR2)",cell-free assay,93%
"ANKK1 (Homo sapiens, UniProt Q8NFD2)",cell-free assay,81%
"CDK11B (Homo sapiens, UniProt P21127)",cell-free assay,84%
"GSK3A (Homo sapiens, UniProt P49840)",cell-free assay,100%
"PIK3CA (Homo sapiens, UniProt P42336, H1047L)",cell-free assay,100%
"FLT3 (Homo sapiens, UniProt P36888, N841I)",cell-free assay,62%
"STK38L (Homo sapiens, UniProt Q9Y2H1)",binding,100%
"LIM domain kinase 1 (LIMK1, Homo sapiens, UniProt P53667)",cell-free assay,100%
"MAP4K1 (Homo sapiens, UniProt Q92918)",cell-free assay,100%
"STK17B (Homo sapiens, UniProt O94768)",cell-free assay,80%
"BMPR1A (Homo sapiens, UniProt P36894)",binding,100%
"CHEK1 (Homo sapiens, UniProt O14757)",cell-free assay,100%
"PI4KB (Homo sapiens, UniProt Q9UBF8)",cell-free assay,98%

# Set 2 — cell line: HaCaT; tested at: 100 µM; time: 36 h
SMILES,viability [%]
CN[C@@H]1[C@H](O[C@H]2[C@H](O[C@H]3[C@H](O)[C@@H](O)[C@H](NC(=N)N)[C@@H](O)[C@@H]3NC(=N)N)O[C@@H](C)[C@]2(O)CO)O[C@@H](CO)[C@H](O)[C@H]1O,86.1
CN(C(=O)CN(CCO)CC(=O)N(C)C(C)(C)Cc1ccccc1)C(C)(C)Cc1ccccc1,5.39
CS(=O)(=O)OCCCCOS(C)(=O)=O,97.1
Nc1cc(N2CCCCC2)nc(N)[n+]1[O-],83.5
c1ccc(CN(CC2=NCCN2)c2ccccc2)cc1,73.8
CC(C)/N=c1\cc2n(-c3ccc(Cl)cc3)c3ccccc3nc-2cc1Nc1ccc(Cl)cc1,31.1

# Set 3 — method: KINOMEscan; tested at: 10 µM; baseline: DMSO control; reading: lower = stronger binding
# Compound: COc1cc(C(=O)N2CCC(N3CCN(C)CC3)CC2)ccc1Nc1ncc2c(n1)N(C)c1ccccc1C(=O)N2C
target,binding [%]
PIP5K2B,100
CSNK1E,95
NEK11,100
CDC2L1,84
CIT,99
MAP3K2,97
MAPKAPK2,100
MST1,100
AAK1,84

# Set 4 — effect on: enzyme activity; mode: inhibitor; tested at: 0.5 µM; baseline: control
# Compound: Cn1cc(/C=C2\C(=O)Nc3ccc(S(N)(=O)=O)cc32)c2ccccc21
target,remaining activity [%]
"EPHB2 (Homo sapiens, UniProt P29323)",84.8
"FGFR4 (Homo sapiens, UniProt P22455)",74.1
"Aurora kinase C (AURKC, Homo sapiens, UniProt Q9UQB9)",37.1
"NUAK1 (Homo sapiens, UniProt O60285)",5.88
"RPS6KB1 (Homo sapiens, UniProt P23443)",44.3
"PRKCG (Homo sapiens, UniProt P05129)",106
"PIM2 (Homo sapiens, UniProt Q9P1W9)",101

# Excerpt of the above (set 1):
target,effect on,remaining binding
"MAP3K5 (Homo sapiens, UniProt Q99683)",cell-free assay,100%
"CSNK1G1 (Homo sapiens, UniProt Q9HCP0)",cell-free assay,91%
"CSF1R (Homo sapiens, UniProt P07333)",cell-free assay,100%
"PIK3CA (Homo sapiens, UniProt P42336, H1047L)",cell-free assay,100%
"FLT3 (Homo sapiens, UniProt P36888, N841I)",cell-free assay,62%
"CHEK1 (Homo sapiens, UniProt O14757)",cell-free assay,100%
"CDK11B (Homo sapiens, UniProt P21127)",cell-free assay,84%
